# Published values gathered from unrelated publications.
Compound,test,system,conditions,measurement,value
CC(=O)N(C)[C@H]1CCN(C(=O)c2cnc3c(c2)C[C@](C)(c2ccc(F)cc2)N3)C1,item: Hematoma,human,"oral, 30 mg once daily",adverse event duration,11 days
Cc1nc(-c2ccc(OCC(C)C)c(C#N)c2)sc1C(=O)O,,healthy Chinese subjects,"oral, 40 mg",adverse drug reaction incidence,12.8%
O=C(c1cccnc1-c1ccncc1)N1CCC(O)(Cc2ccccc2)CC1,,healthy Japanese adults,"oral, dose not given, 21 days",adverse events leading to discontinuation,0%
Cc1cc(C)c(CNC(=O)c2cc(Cl)c3c(c2C)O[C@@](C)([C@H]2CC[C@H](N(C)C)CC2)O3)c(=O)[nH]1,,relapsed/refractory NHL patients,"oral, 200 mg once daily, onset after cycle 1 day 1",adverse event Alopecia,29.2%
CC(=O)O[C@H]1C(=O)[C@@]2(C)[C@H]([C@H](OC(=O)c3ccccc3)[C@]3(O)C[C@H](OC(=O)[C@H](O)[C@@H](NC(=O)c4ccccc4)c4ccccc4)C(C)=C1C3(C)C)[C@]1(OC(C)=O)CO[C@@H]1C[C@@H]2O,item: Nausea,patients with advanced solid tumours,"intravenous, dose not given, grade 3 and 4, possibly related to drug",adverse event incidence,4%
C=CC(=O)N1CCC(c2ccc(C(N)=O)c(-c3ccc(Oc4ccccc4)cc3)n2)CC1,,relapsed/refractory mantle cell lymphoma patients,"oral, dose not given, part, all doses, CTCAE v4.03",adverse event rate,65.6%
Cc1c(Cl)c(C)[n+]([O-])c(Cl)c1-c1noc(-c2cc(O)c(O)c([N+](=O)[O-])c2)n1,item: Presyncope,healthy Caucasian subjects,"oral, 50 mg, 20 days",adverse drug reaction incidence,6.7%
CCO[C@H]1CCN(Cc2c(OC)cc(C)c3[nH]ccc23)[C@H](c2ccc(C(=O)O)cc2)C1,item: abdominal discomfort,PNH patients with active haemolysis,"oral, 100 mg, extension phase",adverse event incidence,40%
C[C@H]1CNCCCN1S(=O)(=O)c1cccc2cncc(F)c12,item: Headache,healthy adult men,"topical ocular, 1 drop per eye twice daily, 8 days",adverse events,5.6%
Cc1cc(Nc2ccc(S(F)(F)(F)(F)F)cc2)n2nc(C(C)(F)F)nc2n1,,Plasmodium falciparum malaria patients,"oral, 400 mg",adverse event Asthenia,7.7%
O=C1CCc2ccc(OCCCCN3CCN(c4cccc(Cl)c4Cl)CC3)cc2N1,item: Constipation,"genotyped patients, CYP2D6 ultrarapid metabolizers","dose not given, long-acting oral or depot",adverse event incidence,0%
NCCONC(=O)[C@@H]1CC[C@@H]2CN1C(=O)N2OS(=O)(=O)O,item: Severe severity,healthy Chinese men,"intravenous, 1 g, treatment-related",adverse event incidence,0%
C=CC[C@@H]1/C=C(\C)C[C@H](C)C[C@H](OC)[C@H]2O[C@@](O)(C(=O)C(=O)N3CCCC[C@H]3C(=O)O[C@H](/C(C)=C/[C@@H]3CC[C@@H](O)[C@H](OC)C3)[C@H](C)[C@@H](O)CC1=O)[C@H](C)C[C@@H]2OC,item: tremors,kidney transplant recipients,"oral, dose not given",adverse drug reactions,30%
CC#CC(=O)N[C@H]1CCCN(c2c(F)cc(C(N)=O)c3[nH]c(C)c(C)c23)C1,,healthy volunteers,"oral, 3 mg single dose, SAD phase I",adverse events,33.3%
CC(C)C[C@H](NC(=O)CNC(=O)c1cc(Cl)ccc1Cl)B(O)O,,newly diagnosed multiple myeloma patients,"oral, dose not given, Nausea, maintenance",adverse events all grades,39%
